Measured values gathered from unrelated publications.
Protocols differ between the studies behind these lines. Values joined by “and” are separate records of one study, mostly repeats; a detail may differ. ± gives the spread as reported.

Cc1nc(-c2ccc(OCC(C)C)c(C#N)c2)sc1C(=O)O has a Tmax of 1.75 h (human; oral, 10 mg once daily, together with: verinurad 0 mg).
For O=C1CC[C@H](N2Cc3cc(N4CCN(CC5CCN(c6ccc([C@@H]7c8ccc(O)cc8CC[C@@H]7c7ccccc7)cc6)CC5)CC4)ccc3C2=O)C(=O)N1, the Tmax was 3.5 h (human, plasma; oral, 200 mg, together with: dabigatran etexilate 75 mg).
With Cc1cc(Nc2cc3ncccc3c(N[C@@H]3C[C@H]4CC[C@@H](C3)N4CCC#N)n2)n[nH]1 the Tmax was 0.76 h (human, plasma; 300 mg single dose, median).
C#C[C@]1(COP(=O)(O)O)O[C@@H](n2cnc3c(N)nc(F)nc32)C[C@@H]1O gave a Tmax of 6 h (measured: islatravir triphosphate; human, PBMC; oral, 100 mg single dose).
CN(C)C(=O)c1cc2cnc(Nc3ccc(N4CCNCC4)cn3)nc2n1C1CCCC1 has a Tmax of 2 h (human, normal renal function, plasma; oral, 400 mg, single dose, median).
C[C@@H](Nc1cc(F)cc(F)c1)c1cc(C(=O)N(C)C)cc2c(=O)cc(N3CCOCC3)oc12 gave a Tmax of 1 to 26.2 h (human; oral, 180 mg twice daily, day 1, 5:2 schedule, single dose, range).
NC[C@@]1(CC(=O)O)[C@@H]2CC[C@H]3C[C@@H]2[C@@H]1C3 has a Tmax of 1.47 h (human, severe renal impairment, plasma; oral, 20 mg single dose, median).
For CCOc1c([C@H](C)n2nc(C)c3c(N)ncnc32)cc(Cl)c(F)c1[C@@H]1CNC(=O)C1, the Tmax was 0.5 h (human patients, Hodgkin lymphoma, plasma; oral, 20 mg, day 15, monotherapy).
Cn1c(=O)oc2ccc(-c3ccc(C[C@@H](C#N)NC(=O)[C@@H]4CNCCCO4)cc3)cc21 gave a Tmax of 1 h (human, moderate renal impairment, plasma; oral, 25 mg single dose, median).
CN(CC#N)C(=O)C[C@H](Nc1nc2ccccc2[nH]1)c1cccc(C(F)(F)F)c1 has a Tmax of 0.48 h (human; intravenous infusion, 5 mg/kg, 1 mg/mL formulation).
Nc1ccc(S(=O)(=O)Nc2ccccn2)cc1 has a Tmax of 10 h (human; oral, 1000 mg, day 1, sulfasalazine alone).
For CN(C)CCCNC(=O)/C(=C/CCCCC(=O)NO)COc1cccc2ccccc12, the Tmax was 0.52 h (human; iv, 312.5 mg/m2, day 1, single dose, mean).
With CCCn1cc(C)c2c(=O)[nH]c(-c3cc(S(=O)(=O)N4CCN(CC)CC4)ccc3OCC)nc21 the Tmax was 1.25 h (human, plasma; oral, 100 mg, median, together with: alcoholic beverage 0.5 g/kg).
With Cc1cn([C@H]2C[C@H](N=[N+]=[N-])[C@@H](CO)O2)c(=O)[nH]c1=O the Tmax was 1.08 ± 0.289 h (human, both sexes, PBMCs; oral, 600 mg, single dose).
Cc1cc(-c2nnc(N)nc2-c2ccc(F)cc2)cc(Cl)n1 has a Tmax of 2 h (human patients, plasma; oral, 200 mg capsule once daily, multiple doses, median).
C[C@H]1[C@@H](O)O[C@@H]2O[C@@]3(C)CC[C@H]4[C@H](C)CC[C@@H]1[C@@]24OO3 gave a Tmax of 0.55 h (human, both sexes, plasma; oral, dose not given, fixed-dose combination).
With COc1nnc2ccc(N3CCC(c4ccc(OCCN5CCN(C)C(=O)[C@H]5C)cc4)CC3)nn12 the Tmax was 1.05 h (human, plasma; oral, 40 mg once daily, single dose, monotherapy).
CC(=O)N(C)[C@H]1CCN(C(=O)c2cnc3c(c2)C[C@](C)(c2ccc(F)cc2)N3)C1 has a Tmax of 1 h (human, male, plasma; oral, 60 mg once daily, steady state, median).
The Tmax of COc1cc(C(=O)NC2CCN(C)CC2)c(F)cc1Nc1ncc(C(F)(F)F)c(Oc2cccc3c2C(=O)N(C)C3)n1 is reported as 2.95 h (human, Japanese, plasma; oral, 200 mg single dose, median).
The Tmax of CC(F)(F)c1cc(F)ccc1-c1sc2cc(O)ccc2c1Oc1ccc(/C=C/C(=O)O)cc1 is reported as 2.2 h (human, serum; oral, 200 mg once daily, cycle 1 day 28, fasted, median).
The Tmax of NC(=S)NN=Cc1ncccc1N is reported as 1.7 h (human, plasma; intravenous, 50 mg, geometric mean).
CCCS(=O)(=O)N[C@H]1C[C@@H](N(C)c2ncnc3[nH]ccc23)C1 gave a Tmax of 1 h (human, plasma; oral, 200 mg single dose).
Cc1cn(C(=O)c2c(-c3c(Cl)cc(Cl)cc3Cl)noc2C(C)(C)F)c2cccc(/C=C/C(=O)O)c12 has a Tmax of 2.05 h (human patients; 500 mg bid, cycle 8 day 1).
With CCn1cc(C(=O)N2CCOCC2)c(=O)c2cc(NC3Cc4ccccc4C3)cnc21 the Tmax was 3 h (human, fed; oral suspension, 600 mg/day twice daily, day 1, median).
Cc1noc(C)c1-c1cc(C(O)(c2ccccn2)c2ccccn2)c2nc(C3CC3)[nH]c2c1 has a Tmax of 1 h (human patients, plasma; oral, 3 mg, cycle 1 day 8, monotherapy).
With COc1cc([C@@H]2[C@H]3CO[C@@]4(O)C(=O)[C@@H]2C=C([C@H]2Oc5cc(O)cc(O)c5C(=O)[C@@H]2O)[C@@H]34)ccc1O the Tmax was 0.25 h (OATP1B1/1B3 humanized mice, plasma; oral gavage, 500 mg/kg silymarin, median).
Cc1ncnc2c1ccn2[C@@H]1C[C@H](Oc2cc(C(F)F)c(F)c3c2CNCC3)[C@@H](O)[C@H]1O gave a Tmax of 0.5 h (human, plasma; 0.5 mg once daily).
CC(=O)Oc1ccccc1C(=O)O gave a Tmax of 1.5 h (human, both sexes, plasma; oral, 650 mg, median, together with: alcohol).
For Cn1cncc1[C@@](N)(c1ccc(Cl)cc1)c1ccc2c(c1)c(-c1cccc(Cl)c1)cc(=O)n2C, the Tmax was 1.65 h and 3.02 h and 2.97 h and 3.25 h and 2 h (human, plasma; oral, 200 mg/m^2).
The Tmax of C[C@H](Oc1ccc(Br)cc1-c1ccon1)C(=O)O is reported as 8.01 h (healthy male humans, plasma; oral, 400 mg twice daily, day 10, median).
O=C(NCCN1CCCC1)c1cc(-c2ccc(CN3CCOCC3)cc2)nc2ccc(F)cc12 has a Tmax of 1.5 h (human, whole blood; oral, 2100 mg).
For COc1cc(C(=O)NC2CCN(C)CC2)c(F)cc1Nc1ncc(C(F)(F)F)c(Oc2cccc3c2C(=O)N(C)C3)n1, the Tmax was 1 h (human patients, plasma; oral, 50 mg single dose, median).
With NC(CO)(CO)CCc1ccc(Sc2cccc(OCc3ccccc3)c2)cc1Cl the Tmax was 4 h (human, fed, whole blood; oral, 3 mg, median, together with: itraconazole 200 mg once daily).
The Tmax of CC(C)NC(=O)COc1cccc(-c2nc(Nc3ccc4[nH]ncc4c3)c3ccccc3n2)c1 is reported as roughly 2 h (human, male, fed, plasma; oral, 200 mg, day 3, median).
With CC(C)n1c(Nc2cccnc2)nc2cnc(Nc3ccc(N4CCN(C)CC4)cc3)nc21 the Tmax was 1 h (human, male, plasma; oral, 150 mg, day 15, median, together with: rifampin 600 mg daily).
Cn1nnc2c(C(N)=O)ncn2c1=O has a Tmax of 1 h (human patients, plasma; oral, 55 mg/m2, day 5, dose level DL6, median, together with: talazoparib 600 µg/m2).
Cc1cc(C)c(CNC(=O)c2cc(Cl)c3c(c2C)O[C@@](C)([C@H]2CC[C@H](N(C)C)CC2)O3)c(=O)[nH]1 has a Tmax of 2.48 h (human, NHL patients, plasma; oral, 200 mg/day, cycle 1 day 15, once daily).
CCCCCCCOc1ccc(CCC(N)(CO)CO)cc1C(F)(F)F.Cl gave a Tmax of 10 h (healthy human males, plasma; 0.125 mg, day 21, median).
For CC(C)(C#N)c1cc(Cn2cncn2)cc(C(C)(C)C#N)c1, the Tmax was 1 h (human; 150 mg).
With Cc1cc(-c2nccc3c2ccn3CC(=O)Nc2ccc(-c3cnccn3)cn2)ccn1 the Tmax was 1 h (human, plasma; oral, 15 mg once daily, day 1, median).
For C=CC(=O)NC1CCN(c2ncc3ncnc(Nc4ccc(Oc5ccc6c(c5)ncn6C)c(C)c4)c3n2)CC1, the Tmax was 3 h (human, male, plasma; oral, 30 mg single dose, fed, median).
For Cc1cc(C)c(CNC(=O)c2cc(Cl)c3c(c2C)O[C@@](C)([C@H]2CC[C@H](N(C)C)CC2)O3)c(=O)[nH]1, the Tmax was 3.5 h (median; healthy male humans, plasma; oral, 25 mg, day 1, alone, itraconazole group).
For Cn1ncnc1[C@H]1c2n[nH]c(=O)c3cc(F)cc(c23)N[C@@H]1c1ccc(F)cc1, the Tmax was 1 h (human patients, plasma; oral, 600 µg/m2 twice daily day 1, day 5, dose level DL5, median, together with: temozolomide 40 mg/m2 daily days 2-6).
CC(C)(C(=O)NC1C2CC3CC1CC(C(N)=O)(C3)C2)N1CCN(c2ccc(C(F)(F)F)cn2)CC1 (stereo not shown) has a Tmax of 2.5 h (human, plasma; 1 mg once daily, 5 days, median).
For C#C[C@]1(CO)O[C@@H](n2cnc3c(N)nc(F)nc32)C[C@@H]1O, the Tmax was 0.25 to 1 h (human, plasma; oral).
CN1CC[C@@H](c2c(O)cc(O)c3c(=O)cc(-c4ccc(C(F)(F)F)cc4Cl)oc23)[C@@H]1CO has a Tmax of roughly 4 h (human, plasma; oral).
O=C(c1cc(Cc2n[nH]c(=O)c3ccccc23)ccc1F)N1CCN(C(=O)C2CC2)CC1 gave a Tmax of 1 h (human, plasma; oral, 25 mg, cycle 1 day 0, dose level -1).
For CC(C)[C@H](N)C(=O)NCCCS(=O)(=O)O, the Tmax was 0.5 h (median; human, plasma; oral, 256.5 mg once daily, day 1, fasted, capsule).
With N#Cc1ccc2c(c1)[C@H]1CCCN(C(=O)c3ccc4[nH]cnc4c3)[C@H]1C2 the Tmax was 1 h (human, plasma; oral, 240 mg once daily, after first dose, median).
O=C(O)CCC(=O)O.[2H]C([2H])([2H])Oc1cc(C)c2[nH]ccc2c1CN1CC[C@@H](C2CC2)C[C@H]1c1ccc(C(=O)O)cc1 has a Tmax of 3.5 h (healthy humans, fasted, plasma; oral, 200 mg, single dose).
The Tmax of COc1ncc(-c2nc3c(n2C(C)C)[C@H](c2ccc(Cl)cc2)N(c2cc(Cl)cn(C)c2=O)C3=O)c(OC)n1 is reported as 2.1 h (LC-MS/MS, noncompartmental; human, plasma; oral, 200 mg, C1D1, high-dose, median).
For CC1(COc2ccc3c(c2)ncn3-c2ccc3cccc(N4CCC(N)CC4)c3n2)COC1, the Tmax was 4 h (human patients, recurrent/progressive HGG or DIPG, serum; oral, 130 mg/m^2, day 1, median).

Excerpt of the above:
Nc1ccc(S(=O)(=O)Nc2ccccn2)cc1 has a Tmax of 10 h (human; oral, 1000 mg, day 1, sulfasalazine alone).
Cn1nnc2c(C(N)=O)ncn2c1=O has a Tmax of 1 h (human patients, plasma; oral, 55 mg/m2, day 5, dose level DL6, median, together with: talazoparib 600 µg/m2).
For Cc1cc(C)c(CNC(=O)c2cc(Cl)c3c(c2C)O[C@@](C)([C@H]2CC[C@H](N(C)C)CC2)O3)c(=O)[nH]1, the Tmax was 3.5 h (median; healthy male humans, plasma; oral, 25 mg, day 1, alone, itraconazole group).
For CC1(COc2ccc3c(c2)ncn3-c2ccc3cccc(N4CCC(N)CC4)c3n2)COC1, the Tmax was 4 h (human patients, recurrent/progressive HGG or DIPG, serum; oral, 130 mg/m^2, day 1, median).
Cc1nc(-c2ccc(OCC(C)C)c(C#N)c2)sc1C(=O)O has a Tmax of 1.75 h (human; oral, 10 mg once daily, together with: verinurad 0 mg).
With COc1cc([C@@H]2[C@H]3CO[C@@]4(O)C(=O)[C@@H]2C=C([C@H]2Oc5cc(O)cc(O)c5C(=O)[C@@H]2O)[C@@H]34)ccc1O the Tmax was 0.25 h (OATP1B1/1B3 humanized mice, plasma; oral gavage, 500 mg/kg silymarin, median).
O=C(c1cc(Cc2n[nH]c(=O)c3ccccc23)ccc1F)N1CCN(C(=O)C2CC2)CC1 gave a Tmax of 1 h (human, plasma; oral, 25 mg, cycle 1 day 0, dose level -1).
